Measured values pooled from the literature.
Each line is one published result; not all experiments were run side by side. Numbers after ± are the reported error.
Eif4e: Eif4e fragment (Mus musculus)
IFIT1 full length assumed: IFIT1 full length assumed (Homo sapiens, UniProt P09914)
Sequence of UniProt P09914 (whole entry, looked up): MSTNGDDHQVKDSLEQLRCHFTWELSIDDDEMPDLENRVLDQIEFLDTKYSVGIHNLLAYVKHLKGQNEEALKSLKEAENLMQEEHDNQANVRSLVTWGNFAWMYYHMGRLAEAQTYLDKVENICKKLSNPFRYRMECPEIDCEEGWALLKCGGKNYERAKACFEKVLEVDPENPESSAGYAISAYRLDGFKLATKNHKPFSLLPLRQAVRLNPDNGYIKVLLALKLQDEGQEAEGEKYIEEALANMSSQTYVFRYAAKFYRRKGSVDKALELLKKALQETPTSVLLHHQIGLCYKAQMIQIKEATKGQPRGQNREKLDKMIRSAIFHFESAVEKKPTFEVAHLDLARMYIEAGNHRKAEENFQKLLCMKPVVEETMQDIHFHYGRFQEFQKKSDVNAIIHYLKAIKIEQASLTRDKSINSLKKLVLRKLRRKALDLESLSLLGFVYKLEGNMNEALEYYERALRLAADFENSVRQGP
TFRC residues 1-760: TFRC residues 1-760 (Homo sapiens, UniProt P02786)
Sequence of UniProt P02786 (whole entry, looked up): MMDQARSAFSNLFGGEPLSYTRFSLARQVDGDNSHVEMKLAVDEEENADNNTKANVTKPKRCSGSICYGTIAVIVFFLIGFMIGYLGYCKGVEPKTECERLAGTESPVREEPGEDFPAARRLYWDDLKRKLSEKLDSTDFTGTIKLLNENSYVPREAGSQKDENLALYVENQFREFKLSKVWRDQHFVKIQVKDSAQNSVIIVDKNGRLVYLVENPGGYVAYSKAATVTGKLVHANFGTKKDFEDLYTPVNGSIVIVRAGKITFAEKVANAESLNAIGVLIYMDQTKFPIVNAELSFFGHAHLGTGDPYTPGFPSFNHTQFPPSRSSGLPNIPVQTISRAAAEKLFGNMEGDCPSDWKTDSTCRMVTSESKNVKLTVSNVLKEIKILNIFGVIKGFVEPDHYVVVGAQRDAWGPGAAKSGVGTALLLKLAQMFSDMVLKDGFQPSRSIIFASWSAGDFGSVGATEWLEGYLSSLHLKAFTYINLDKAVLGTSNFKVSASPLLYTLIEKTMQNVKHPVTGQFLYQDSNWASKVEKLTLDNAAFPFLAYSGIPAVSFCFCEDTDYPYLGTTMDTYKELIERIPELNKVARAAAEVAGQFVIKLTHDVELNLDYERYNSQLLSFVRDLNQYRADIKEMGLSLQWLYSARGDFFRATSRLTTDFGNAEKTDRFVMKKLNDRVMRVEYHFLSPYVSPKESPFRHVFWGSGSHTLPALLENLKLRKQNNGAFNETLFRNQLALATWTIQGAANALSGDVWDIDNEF
T1: NR1I2/RXRA (Homo sapiens); chain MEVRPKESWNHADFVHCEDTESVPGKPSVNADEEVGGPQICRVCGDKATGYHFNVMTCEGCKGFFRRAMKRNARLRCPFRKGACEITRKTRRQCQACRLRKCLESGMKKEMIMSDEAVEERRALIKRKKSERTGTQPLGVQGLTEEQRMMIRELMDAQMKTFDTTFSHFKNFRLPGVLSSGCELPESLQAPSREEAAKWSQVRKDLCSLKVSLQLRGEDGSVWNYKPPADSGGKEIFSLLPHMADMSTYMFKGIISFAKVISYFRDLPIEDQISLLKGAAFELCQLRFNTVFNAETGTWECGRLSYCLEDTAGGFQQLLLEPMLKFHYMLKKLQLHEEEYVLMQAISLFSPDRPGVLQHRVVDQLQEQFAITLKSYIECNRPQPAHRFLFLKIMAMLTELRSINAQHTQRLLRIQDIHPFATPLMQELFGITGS; chain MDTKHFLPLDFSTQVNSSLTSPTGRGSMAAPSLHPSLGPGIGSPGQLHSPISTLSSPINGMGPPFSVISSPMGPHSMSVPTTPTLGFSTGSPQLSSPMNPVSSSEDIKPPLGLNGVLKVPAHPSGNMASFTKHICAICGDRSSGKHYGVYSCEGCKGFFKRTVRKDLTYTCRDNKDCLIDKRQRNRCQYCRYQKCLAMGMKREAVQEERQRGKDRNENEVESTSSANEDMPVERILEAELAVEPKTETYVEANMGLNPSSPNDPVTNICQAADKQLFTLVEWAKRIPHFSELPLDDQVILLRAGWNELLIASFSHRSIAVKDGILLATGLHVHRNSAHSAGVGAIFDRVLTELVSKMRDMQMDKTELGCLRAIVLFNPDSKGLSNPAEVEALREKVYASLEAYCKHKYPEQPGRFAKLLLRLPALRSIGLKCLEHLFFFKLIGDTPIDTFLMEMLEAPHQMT
B1: UGT1A9 (Homo sapiens, UniProt O60656); chain GKLLVVPMDGSHWFTMRSVVEKLILRGHEVVVVMPEVSWQLGRSLNCTVKTYSTSYTLEDLDREFKAFAHAQWKAQVRSIYSLLMGSYNDIFDLFFSNCRSLFKDKKLVEYLKESSFDAVFLDPFDNCGLIVAKYFSLPSVVFARGILCHYLEEGAQCPAPLSYVPRILLGFSDAMTFKERVRNHIMHLEEHLLCHRFFKNALEIASEILQTPVTEYDLYSHTSIWLLRTDFVLDYPKPVMPNMIFIGGINCHQGKPLPMEFEAYINASGEHGIVVFSLGSMVSEIPEKKAMAIADALGKIPQTVLWRYTGTRPSNLANNTILVKWLPQNDLLGHPMTRAFITHAGSHGVYESICNGVPMVMMPLFGDQMDNAKRMETKGAGVTLNVLEMTSEDLENALKAVINDKSYKENIMRLSSLHKDRPVEPLDLAVFWVEFVMRHKGAPHLRPAAHDLTWYQYHSLDVIGFLLAVVLTVAFITFKCCAYGYRKCLGKKGRVKKAHKSKTH
Sequence of UniProt Q4VGL6 (whole entry, looked up): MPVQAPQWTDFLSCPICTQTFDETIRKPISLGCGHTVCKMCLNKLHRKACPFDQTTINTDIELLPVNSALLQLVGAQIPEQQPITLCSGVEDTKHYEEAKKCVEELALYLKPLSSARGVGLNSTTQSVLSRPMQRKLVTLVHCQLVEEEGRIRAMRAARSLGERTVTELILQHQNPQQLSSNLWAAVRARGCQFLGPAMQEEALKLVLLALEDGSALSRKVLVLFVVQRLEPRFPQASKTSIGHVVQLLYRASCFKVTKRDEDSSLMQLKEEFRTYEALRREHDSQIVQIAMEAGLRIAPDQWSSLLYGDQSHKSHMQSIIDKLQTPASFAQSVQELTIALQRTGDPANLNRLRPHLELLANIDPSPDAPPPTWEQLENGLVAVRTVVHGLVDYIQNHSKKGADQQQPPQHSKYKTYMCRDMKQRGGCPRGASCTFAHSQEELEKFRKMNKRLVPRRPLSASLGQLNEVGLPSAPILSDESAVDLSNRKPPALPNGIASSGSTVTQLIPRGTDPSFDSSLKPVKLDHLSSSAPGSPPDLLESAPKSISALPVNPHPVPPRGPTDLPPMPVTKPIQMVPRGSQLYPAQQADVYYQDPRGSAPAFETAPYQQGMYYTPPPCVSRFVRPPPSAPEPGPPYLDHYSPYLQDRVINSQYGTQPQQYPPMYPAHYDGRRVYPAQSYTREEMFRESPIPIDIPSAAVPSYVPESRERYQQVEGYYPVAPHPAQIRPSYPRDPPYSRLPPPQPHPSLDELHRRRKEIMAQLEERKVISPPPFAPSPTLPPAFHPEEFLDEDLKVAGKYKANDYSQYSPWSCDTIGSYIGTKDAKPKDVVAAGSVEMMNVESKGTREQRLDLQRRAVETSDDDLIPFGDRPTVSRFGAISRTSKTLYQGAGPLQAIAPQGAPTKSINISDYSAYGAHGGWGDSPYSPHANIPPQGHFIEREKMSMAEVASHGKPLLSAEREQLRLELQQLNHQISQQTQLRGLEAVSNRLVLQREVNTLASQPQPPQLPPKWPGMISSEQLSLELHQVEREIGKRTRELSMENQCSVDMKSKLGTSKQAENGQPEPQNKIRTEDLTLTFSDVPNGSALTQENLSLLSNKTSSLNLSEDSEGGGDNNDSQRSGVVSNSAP
Sequence of UniProt O15527 (whole entry, looked up): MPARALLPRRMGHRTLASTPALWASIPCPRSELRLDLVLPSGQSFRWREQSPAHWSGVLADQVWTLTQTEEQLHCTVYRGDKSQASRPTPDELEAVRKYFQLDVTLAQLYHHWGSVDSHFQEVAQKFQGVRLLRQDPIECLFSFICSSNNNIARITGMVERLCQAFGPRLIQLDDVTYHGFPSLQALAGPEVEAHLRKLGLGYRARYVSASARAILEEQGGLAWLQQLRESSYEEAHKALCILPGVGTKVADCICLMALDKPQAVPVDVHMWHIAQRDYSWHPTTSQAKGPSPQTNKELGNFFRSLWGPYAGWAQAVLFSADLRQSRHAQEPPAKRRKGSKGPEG
Sequence of UniProt Q9NR56 (whole entry, looked up): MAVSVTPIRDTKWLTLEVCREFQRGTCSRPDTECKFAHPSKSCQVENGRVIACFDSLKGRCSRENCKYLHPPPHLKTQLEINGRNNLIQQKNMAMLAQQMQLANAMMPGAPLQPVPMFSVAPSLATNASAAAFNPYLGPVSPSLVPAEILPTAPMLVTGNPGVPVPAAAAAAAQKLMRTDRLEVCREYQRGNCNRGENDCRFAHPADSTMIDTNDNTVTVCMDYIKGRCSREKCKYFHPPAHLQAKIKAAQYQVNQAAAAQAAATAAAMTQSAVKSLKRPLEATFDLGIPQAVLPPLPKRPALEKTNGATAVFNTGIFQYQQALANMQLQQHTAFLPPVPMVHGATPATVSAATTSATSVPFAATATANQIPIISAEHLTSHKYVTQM

TTAGGGTTAGGGTTAGGG (ssDNA) — Kd (CTC1/STN1/TEN1 (Homo sapiens); double-filter binding; single-stranded DNA): 21.6 ± 1 nM
TCTGGAACGGAATTCTTCTA (dsDNA (Mus musculus); blunt; 5hmC and 5mC at CpG) — Kd (MECP2 1-486 (Homo sapiens, UniProt P51608); fluorescence anisotropy; double-stranded DNA, one strand shown; KCl 150 mM): 7.8 ± 4.7 nM
GGCCUAGCCGUGGGUUCUACCACGUCUCAAGGCU (structured RNA) — Kd (Rc3h1 89-404 (Mus musculus, UniProt Q4VGL6); EMSA; with: MgCl2 1 mM): 770 ± 158 nM
CUGCAUAGGC (ssRNA) — Kd (Fab BRG Fab; filter binding): 15 ± 2 nM
TAGTGAACTTTCGGTGAACCCTGATCAGCGTTCGATGCTTCCGACTAATCAGCCATATCAGCTTACGACTA (dsDNA) — Kd (RXRA/RARA ; (Mus musculus); switchSENSE; double-stranded DNA, one strand shown; with: 9-cis RA): 5 ± 1 nM
CACGACGCAAGGGACCACAGGTTTTGCGAACGCGGGTAGGCGCACCCTTCGCACAAACGTCCCCAGCACGACACCGCAGAGGCA (XNA; 5-ethynyl-dU in flow assay) — Kd (Streptavidin fragment (Streptomyces avidinii); SPR; 37 °C): 53.3 ± 5.89 nM
GCG (ssRNA; m7G 5'-5' triphosphate cap, C2) — Kd (Eif4e; fluorescence quenching titration): 25.1 ± 0.6 nM
GAGUUGAGUUGAGUUGAGUUGAGUUGAGUUGAGUUGAGUUGAGUUGAGUUGAGUU (ssRNA; single strand) — Kd (mtrB full length assumed T30V (Bacillus subtilis, UniProt P19466); filter binding; with: no tryptophan): 115 ± 16 nM
CGATCATGGAGGCTANCGCTCCCGTTACAG / CTGTAACGGGAGCGCTAGCCTCCATGATCG (dsDNA; blunt, indole analog position 16) — Kd (OGG1 full length assumed (Homo sapiens, UniProt O15527); EMSA; 25 °C, product formed during incubation): < 0.003 nM
GGGGAACACGUUUACUAACAUAACUUUAUUUACAUAGCAUGUCA / GUAUGCAUAGGCAAUAA (structured RNA (Saccharomyces cerevisiae); 2'-5' branch, two strands) — Kd (Fab BRG Fab; filter binding): 21 ± 3 nM
GGGAGACCGGCCUCGA (ssRNA; 5' triphosphate, linear) — Kd (IFIT1 full length assumed; BLI): 55.8 nM
GGG (ssRNA; m7G 5'-5' triphosphate cap, G2) — Kd (Eif4e; fluorescence quenching titration): 22.7 ± 0.9 nM
AUGCAUAGGC (ssRNA) — Kd (Fab BRG Fab; filter binding): 10 ± 2 nM
GCACCUCUGCUUGCUGUUUACCUGUAUGUUAAUUCGCUUG (ssRNA) — Kd (MBNL1 1-260 (Homo sapiens, UniProt Q9NR56); EMSA): 5.8 nM
CCGGTCGTACGGAAAACCTGTATTTTCAGGGCTCCGG (dsDNA) — Kd (POLG2 fragment (Homo sapiens); EMSA; double-stranded DNA, one strand shown): 490 nM
ACTCATAGGGTTAGGGGCTGCTGGCCAGATACTCAGATGTAGGGTTACTATGAGC (ssDNA; 5' C6 spacer) — Kd (TFRC residues 1-760; flow cytometry; PL45; not displaced by anti-CD71, not purified): 11 nM
GGGAGACCGGCCUCGA (ssRNA; 5' m7GpppG cap, linear) — Kd (IFIT1 full length assumed; BLI): 17.6 nM
CACGACGCAAGGGACCACAGGTGGACCGCTAACTCCGGCCCAGGTCCAGCACGACACCGCAGAGGCA (ssDNA; indole-modified 5-ethynyl-dU at 22, 30, 34, 45) — Kd (CSPG4 30-2224 (Homo sapiens, UniProt Q6UVK1); SPR single-cycle kinetics; with: Mg2+ 5 mM): 29 nM
B1 (UGT1A9) — Km (O=c1c(O)c(-c2ccccc2O)oc2cc(O)cc(O)c12; steady-state kinetics; pH 7.4, 37 °C): 2.46 µM
TACTCATAGGGTTAGGGGCTGCTGGCCAGATACTCAGATGGTAGGGTTACTATGAGCA (ssDNA; 5' C6 spacer) — Kd (TFRC residues 1-760; flow cytometry; PL45; not purified): < 15 nM
GAG (ssRNA; m7G 5'-5' triphosphate cap, N6,2'-O-dimethyl A2) — Kd (Eif4e; fluorescence quenching titration): 32.8 ± 0.8 nM
TGAACTCAAAGGAGGTCA (dsDNA) — Kd (T1, NR1I2/RXRA (Homo sapiens); fluorescence anisotropy; double-stranded DNA, one strand shown; with: SR12813, 9-cis-retinoic acid): 215 ± 36 nM

Excerpt of the above:
GGGAGACCGGCCUCGA (ssRNA; 5' m7GpppG cap, linear) — Kd (IFIT1 full length assumed; BLI): 17.6 nM
CACGACGCAAGGGACCACAGGTGGACCGCTAACTCCGGCCCAGGTCCAGCACGACACCGCAGAGGCA (ssDNA; indole-modified 5-ethynyl-dU at 22, 30, 34, 45) — Kd (CSPG4 30-2224 (Homo sapiens, UniProt Q6UVK1); SPR single-cycle kinetics; with: Mg2+ 5 mM): 29 nM
B1 (UGT1A9) — Km (O=c1c(O)c(-c2ccccc2O)oc2cc(O)cc(O)c12; steady-state kinetics; pH 7.4, 37 °C): 2.46 µM
TACTCATAGGGTTAGGGGCTGCTGGCCAGATACTCAGATGGTAGGGTTACTATGAGCA (ssDNA; 5' C6 spacer) — Kd (TFRC residues 1-760; flow cytometry; PL45; not purified): < 15 nM
